# Measured values pooled from the literature.
# Numbered parts are unrelated; each lists some results of a single study.

# Study 1 — method: RNA Bind-n-Seq; molecule type: RNA; sample: in vitro; tested at: 200 nM; notes: whole 134-nt RNA, ends assumed; together with: 150 mM LiCl; reference: input library; reading: higher = stronger binding; library: 7-deaza-guanosine replaces G
# Target: Fragile X messenger ribonucleoprotein 1, C-terminal low-complexity region (Fmr1, Mus musculus, UniProt P35922)
# All sequences stand within: GGGAGUUCUACAGUCCGACGAUC … UGGAAUUCUCGGGUGUCAAGG
Strand,log2 enrichment
AAGUCCUGUGCUACACAUCGUAUGUACCGAAUCGGGUUUUUGGGUUUGGGUUUGGGAAAGUAUUAUGUUACGCCGUUCGGAUCUGCACUU,-1.8
AAUUCUCAUUUCUCGACAUAAAGCCUUGUCUAAAGUGAGAUGUUUUCCAGGUCAUACAUAGGUUUCUCCCUGGGGUAAUUGGAAGUUCUU,-2.66
AGUCCUGUGCUACACAUCGUAUGUACCGAAUCGGGUGGGUUUUUGGGAAAAAAAGGGAAAGUAUUAUGUUACGCCGUUCGGAUCUGCACU,-1.48
GCAGGAAGUAAAAACAAAUGGAAAUGCUUCGGAUAGUGGCAGGGGUGCGGGUUGCUAAGGAAAGGGUGGGAUGGGAGUGGGUAAAGAGUU,1.55
UGUGUGUUAUAUAUUUAUUUUUAAUUGCAGAUGACAGGAUUGGACAUUGAGAAGGACCAGAUUAUUGAGAUGGCCUGUCUGAUAACUGAC,-3.44
AAGUCCUGUGCUACACAUCGUAUGUACCGAAUCGGUGGUUUUUUUGGAAAAAAAGGAAAGUAUUAUGUUACGCCGUUCGGAUCUGCACUU,-2.08
UGGCCCUGGUGGCCUGCGGGGAGGAAGAGGUGGCCUCAUGGAUCGUGGUGGUCCCGGUGGAAUGUUCAGAGGUGGCCGUGGUGGAGACAG,0.268
UCAAGUCCUGUGCUACACAUCGUAUGUACCGAAUCGGGUUUGGGUUUGGUUUGGGAAAGUAUUAUGUUACGCCGUUCGGAUCUGCACUUC,-1.29
ACCAUGCAGGUGGGCAUCUUUGGGAAGUGGGGCAAGGGGGGGAUAGGGAGGGGGGUAACACUUUGGGAACAGGUCGUCCCAGGUCGUUUC,1.73
CUGUGCUACACAUCGUAUGUACCGAAUCGGGGAAAAAAAGGGAAAAAAAGGGAAAAAAAGGAAAGUAUUAUGUUACGCCGUUCGGAUCUG,-0.0881
UCAAGUCCUGUGCUACACAUCGUAUGUACCGAAUCGGGGUUGGGGUUGGGUUGGGAAAGUAUUAUGUUACGCCGUUCGGAUCUGCACUUC,-0.851

# Study 2 — method: universal PBM; molecule type: double-stranded DNA, one strand shown; sample: in vitro; tested at: 600 nM; reading: higher = stronger binding
# Target: Sal-like protein 4, full length isoform A (SALL4, Homo sapiens, UniProt Q9UJQ4, residues 1-1053)
# Chain of UniProt Q9UJQ4 (whole entry, looked up): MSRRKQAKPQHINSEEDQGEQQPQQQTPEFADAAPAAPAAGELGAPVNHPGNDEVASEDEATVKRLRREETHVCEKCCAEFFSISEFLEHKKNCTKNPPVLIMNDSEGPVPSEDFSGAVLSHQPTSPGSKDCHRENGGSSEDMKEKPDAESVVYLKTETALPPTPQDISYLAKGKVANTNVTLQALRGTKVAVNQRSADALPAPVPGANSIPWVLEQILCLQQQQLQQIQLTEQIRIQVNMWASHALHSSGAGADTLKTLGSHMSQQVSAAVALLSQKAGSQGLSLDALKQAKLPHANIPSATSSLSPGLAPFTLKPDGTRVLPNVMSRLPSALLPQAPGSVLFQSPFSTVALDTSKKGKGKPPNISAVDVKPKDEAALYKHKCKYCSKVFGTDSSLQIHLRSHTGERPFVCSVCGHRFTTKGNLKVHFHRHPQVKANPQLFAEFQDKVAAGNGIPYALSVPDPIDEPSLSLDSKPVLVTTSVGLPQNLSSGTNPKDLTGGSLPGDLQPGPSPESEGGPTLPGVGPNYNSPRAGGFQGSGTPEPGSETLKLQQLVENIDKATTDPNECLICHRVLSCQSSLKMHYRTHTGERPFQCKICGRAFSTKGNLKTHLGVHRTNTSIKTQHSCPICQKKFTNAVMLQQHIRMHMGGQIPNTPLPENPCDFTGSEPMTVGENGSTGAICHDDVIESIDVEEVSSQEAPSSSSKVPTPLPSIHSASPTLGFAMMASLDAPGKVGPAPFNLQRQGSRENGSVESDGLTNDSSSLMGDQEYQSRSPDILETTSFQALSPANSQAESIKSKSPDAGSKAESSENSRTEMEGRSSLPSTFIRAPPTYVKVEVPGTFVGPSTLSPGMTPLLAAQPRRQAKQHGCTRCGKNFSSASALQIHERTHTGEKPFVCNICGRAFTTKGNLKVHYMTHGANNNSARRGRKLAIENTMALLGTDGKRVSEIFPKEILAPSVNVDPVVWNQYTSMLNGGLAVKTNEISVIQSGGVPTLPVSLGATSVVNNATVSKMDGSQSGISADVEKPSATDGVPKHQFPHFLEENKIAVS
# Notes: 8-mer, flanks averaged, mean of replicates
Strand,E-score
CACCTATA,0.174
TCTTTAAA,0.281
AAGATCGC,-0.121
CATCTTAG,0.0394
AAACGATA,0.239
ACAACGGG,-0.0798
CGAAGTGA,-0.0908
CCGCATTA,0.0463
GAATCGCA,-0.123
AGTCTCCA,-0.0654
CTAAGTTA,0.244
GGAATGAC,-0.0267
TAACCGTA,0.149
CTTTTAAC,0.169
GGTGCGTA,-0.146
GCGGGCAC,-0.167
AATACGCG,0.0362
GTCTGGAA,0.0351
CACTGTCC,-0.12
ACCTAGGT,-0.189
ACTTTACT,0.166
AGAGTGGA,-0.112
AGTCACCC,-0.191
GTCGGTAA,-0.0514
CATCCGTA,-0.000595

# Study 3 — method: RNA Bind-n-Seq; molecule type: RNA; sample: in vitro; tested at: 365 nM; reference: no-protein control; reading: higher = stronger binding
# Target: RNA binding protein fox-1 homolog 2, RRM domain, GST-SBP tag (RBFOX2, Homo sapiens, UniProt O43251-10, residues 100-194)
# Notes: natural RNA segment, single round, ends assumed
# All sequences stand within: GGGAGUUCUACAGUCCGACGAUC … UGGAAUUCUCGGGUGCCAA
# Construct (chain): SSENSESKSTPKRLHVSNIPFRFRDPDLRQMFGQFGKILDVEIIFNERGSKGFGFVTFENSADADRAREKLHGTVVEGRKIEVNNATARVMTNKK
Strand,RBNS enrichment (R)
AGGCCUUGGAUUUAUAUUGCACUUCAUAGACCCCUAGGCUGCUGUGCGGUGGGACUCCACAUGCGCCGGAAGGAGCUUCAGGUGAGCACUGCUCAUGUGUGGAUGCCCCU,2.39
ACAGUCAUUGUAAUUGGGUAGUUUUGUUAAUAAAUAUUUUUAAAUCUUGCUUUUCAGAAAUUACCGAAUGUGUAUAAACAAAUAAAGAAAAAUAAUUUAGCUGUGUUUUA,1.01
GAAUUCUCUUGCCUUCAACAAGCACACUGACAGAGAAAAAAUGCUACUGUCUGUUGGUUCCAAUAUUCUCCCACUGCUAGAGCUUCCUGUUAAGCAAGUGUGAUCUGCAA,0.609
ACGGGUCUGCUGGAGAGAGAAGAAACAGGUGGCUGCCUUCCACCUCACUCCUCACUUGAGCUGCCUGGACUCGAGGAGCAGAGACUGGACAACCCAGGCGUCAGAAGCCU,0.455
ACAGAGGUGUGAAUAAAAGCAUCAGGAAAUCGGAUGGAGAACCACCAUUCACCCAAGGGUCAGAGGAGGUUUCAAAGAAAAGGUGUCAUUGGAGCAGUGUUUUGCAGAAU,0.654
CAGAAUUUAUACCAAGAGACUCUUGUAGACGCCGCGGAUGUCCUCUAUAUUGUGAUACAGAAACUGUCAACUUUUCGCUCUGUGAACUGUUUUUAAGACACUUUGAUGUU,0.422
UCUGAUUCUCAUCAUUGGGAGAUCUUAAAUCUUAGCAAGCAUUAGCAAUAUUAAAUGCCAAAAUUCCAUUGAAACUUUCAAGUUGGAGCAAUUGUCUGUGUUUGAAAAGA,0.665
UCUUACUUUAGCAGUCACUUAACCUUCUCCAGCAAGGCAGUUGUGGGGUUCACUAGGAUUUAGUGCCUGAUCUUUUUUUUGGGAAGGGGCGGGAAUGAAUGUGUUGGGGC,1.35
GAUGGUGGGGCCAGUGGUUGUGUGAAAGCAGGAGGGGCAGCCCUCCUGGACAAGUGUGAUCCCCCUAUAAACGGCUCUCAGGAGGUUAGUGAGUAGGAGAUUCUGCCUUG,0.324
GUUUUUUCUUUAAGGCUUUUUUGCCUUGUGCCACUGUUGCUCCUUGGUUUCCCUUGCGUAAUUGAUAAGCCCAGUUAUUCAGUAAUGUUUACAAAUUAAUUGACUUUGAU,0.546
UUAAAGGAACAGCAGAGUAGAAAAGAGGUUGAGAAUGUUUUCUAGCAGGCAGAAUGUGCAUACAUGUUUUCAUGAGUGUCCUUUGGGUGCUGUUUCUUUUAAAUCCUCUG,1.02
GAGAAGCCCUAAUUAACAACGUUGGUGACUUGUGUAAAAUGGAUUUGUAACCUACAAGUCACCAAACGAUGACUAGAAGCUGCAGUGCUGUACAGGAAUGUGAAGGGAGG,1.14

# Study 4 — method: protein-binding microarray; molecule type: double-stranded DNA, one strand shown; sample: in vitro; tested at: 250 nM; notes: 60-bp whole probe; together with: salmon DNA 0.4 mg/ml; reference: random background probes; reading: higher = stronger binding; all sequences stand within: GCCTAGCAC … GTCTTGATTCGCTTGACGCTGCTG
# Target: Interferon regulatory factor 7, full length, phosphomimetic (IRF7, Homo sapiens, UniProt Q92985, residues 1-503, S101K/S471D/S472D/S475D/S476D/S477D/S483D/S484D/S487D)
# Target sequence (chain): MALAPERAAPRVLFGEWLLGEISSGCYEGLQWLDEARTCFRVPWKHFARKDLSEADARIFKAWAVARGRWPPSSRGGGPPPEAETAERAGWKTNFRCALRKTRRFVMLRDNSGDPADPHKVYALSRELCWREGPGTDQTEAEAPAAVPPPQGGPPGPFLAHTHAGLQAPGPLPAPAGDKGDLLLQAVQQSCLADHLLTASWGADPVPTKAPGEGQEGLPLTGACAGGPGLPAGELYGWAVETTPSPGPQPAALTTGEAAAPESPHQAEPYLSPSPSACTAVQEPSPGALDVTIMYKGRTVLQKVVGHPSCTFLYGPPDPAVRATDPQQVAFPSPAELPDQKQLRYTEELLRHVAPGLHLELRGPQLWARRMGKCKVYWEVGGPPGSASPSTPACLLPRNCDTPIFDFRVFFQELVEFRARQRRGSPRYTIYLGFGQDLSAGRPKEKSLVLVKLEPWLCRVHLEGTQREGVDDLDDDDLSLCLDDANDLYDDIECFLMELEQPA
Strand,log fluorescence [z-score]
GACGATTTCAGTTTCGAGAAGTGCTAG,2.74
CACGGTTTCGACACTGGGGACGTGCTA,4.13
GACGGTATCGACTTTCGGAACGTGCTA,1.88
TTAGAACAGAGTATCGATTAGTGCTAG,0.618
TTAGATATCAGTCTCGATTCGTGCTAG,5.12
GACGGTCTCGGTTCCGGGACGTGCTAG,3.13
TTTGATCTCAGTTTCGATTAGTGCTAG,8.07
TTAGATATCGGGACTGGAGTAGTGCTA,-0.578
TTAGATTTCGGGAATCGATTAGTGCTA,1.78
TTAGATTTCGGTTCCGATTAGTGCTAG,4.16
TTACATTCCCCATTGTGTTGGTGCTAG,1.07
TTAGGTCTCCTACTGCTTTGGTGCTAG,0.0339
TCAGATATGCGGTAAGGGACTGTGCTA,-0.436
TTTTTTTTTTTTTGGAATGTGTGCTAG,0.811
GACGGTATCGGTATCAGGACGTGCTAG,1.2
GACGGTATCAGTATCGGGACGTGCTAG,-0.175
AAGTGTTTGGTGTCTTTTGTGGTGCTA,-0.452
TCCACTTTCTTTTGCTTGTTGTGCTAG,1.22
TCATCTCTGGGCTGTGGGACTGTGCTA,-0.34

# A few entries again (study 3):
Strand,RBNS enrichment (R)
GAAUUCUCUUGCCUUCAACAAGCACACUGACAGAGAAAAAAUGCUACUGUCUGUUGGUUCCAAUAUUCUCCCACUGCUAGAGCUUCCUGUUAAGCAAGUGUGAUCUGCAA,0.609
GAUGGUGGGGCCAGUGGUUGUGUGAAAGCAGGAGGGGCAGCCCUCCUGGACAAGUGUGAUCCCCCUAUAAACGGCUCUCAGGAGGUUAGUGAGUAGGAGAUUCUGCCUUG,0.324
GUUUUUUCUUUAAGGCUUUUUUGCCUUGUGCCACUGUUGCUCCUUGGUUUCCCUUGCGUAAUUGAUAAGCCCAGUUAUUCAGUAAUGUUUACAAAUUAAUUGACUUUGAU,0.546
ACAGUCAUUGUAAUUGGGUAGUUUUGUUAAUAAAUAUUUUUAAAUCUUGCUUUUCAGAAAUUACCGAAUGUGUAUAAACAAAUAAAGAAAAAUAAUUUAGCUGUGUUUUA,1.01
